Measured values pooled from the literature.
Each line is one published result; not all experiments were run side by side. ± gives the spread as reported.

SMILES	test	system	conditions	scale	quantity	value
Cn1c(=O)oc2ccc(-c3ccc(CC(C#N)NC(=O)C4CNCCCO4)c(F)c3)cc21 (stereo not drawn)	measured: lymphadenopathy	human volunteers	oral, dose not given	–	treatment-related adverse event incidence	3.7%
CN(C)S(=O)(=O)NC(=O)c1ccc2c(C3CCCCC3)c3n(c2c1)CC(C(=O)N1CCOCC1)=Cc1ccccc1-3	–	phosphate buffer	pH 6.5	–	amorphous solubility	< 1 µg/mL
Cc1cc(C(=O)Nc2nc3cccc(C)c3n2[C@H]2CCCCN(C(=O)/C=C/CN(C)C)C2)ccn1	–	rat brain tissue	concentration not given	–	brain tissue binding	> 99%
O=C(O)C1OC(OC2C(COS(=O)(=O)O)OC(OC3C(C(=O)O)OC(OC4C(COS(=O)(=O)O)OC(OC5C(C(=O)O)OC(OC6C(COS(=O)(=O)O)OC(OC7C(C(=O)O)OC(OC8C(COS(=O)(=O)O)OC(OC9C(C(=O)O)OC(OC%10C(COS(=O)(=O)O)OC(OC%11C(C(=O)O)OC(Oc%12ccc([N+](=O)[O-])cc%12)C(O)C%11O)C(NS(=O)(=O)O)C%10O)C(OS(=O)(=O)O)C9O)C(NS(=O)(=O)O)C8O)C(OS(=O)(=O)O)C7O)C(NS(=O)(=O)O)C6O)C(OS(=O)(=O)O)C5O)C(NS(=O)(=O)O)C4O)C(OS(=O)(=O)O)C3O)C(NS(=O)(=O)O)C2OS(=O)(=O)O)C(O)C(O)C1OC1OC(COS(=O)(=O)O)C(O)C(O)C1NS(=O)(=O)O (stereo not drawn)	–	rats, serum	intravenous, 3600 µg/kg/day for 7 days, day 8	–	total protein	6.28 ± 0.11 g/dL
CC12CC(c3ccc(S(C)(=O)=O)cc3)C3=C4CCC(=O)C=C4CCC3C1CCC2(O)C(F)(F)C(F)(F)F (stereo not drawn)	–	human	oral, 4 mg	relative to: subjects	possibly drug-related headache incidence	21.4%
O=C(O)C1CN(Cc2ccc(-c3noc(-c4ccc(OCC[18F])c(C(F)(F)F)c4)n3)cc2)C1	–	Sprague-Dawley rat, male, normal, thymus	iv, 120 min	–	tissue uptake	0.182 ± 0.013 %ID/g
C=C(C)C(=O)Nc1ccc(-c2c(-c3ccc(Oc4nccc(C)n4)cc3)c3c(N)ncnc3n2C)cc1	–	beagle dog, plasma	intravenous	–	clearance	23 mL/min/kg
N#CCc1cccc(Cl)c1-c1ccc2[nH][11c](=O)[nH]c2c1	PET	Sprague-Dawley rats, whole brain	–	–	brain uptake	~0.2 SUV
CC[C@@H](C)[C@H]1NC(=O)[C@@H]([C@H](C)O)NC(=O)[C@@H](Cc2c[nH]cn2)NC(=O)CNC(=O)[C@@H](CCCNC(=N)N)NC(=O)CNC(=O)[C@@H](Cc2ccccc2)NC1=O	–	New Zealand white rabbit, female, vitreous	ocular, 0.5% eye drop, 50 µL, 24 h	–	concentration	10.6 ng/mL
Cc1ccc(OCC(=O)N(Cc2cccs2)c2ccn[nH]2)cc1	–	female Sprague-Dawley rat, plasma	oral, 100 mg/kg, single dose	–	Tmax	30 min
COc1ccnc(C[S+]([O-])c2nc3cc(-n4cccc4)ccc3[nH]2)c1C (stereo not drawn)	–	male Sprague Dawley rats, plasma	oral, 10 mg/kg ilaprazole racemate	relative to: compound over R-ilaprazole	Vz/F ratio	1.14
CCCC[C@H](NC(C)=O)C(=O)N[C@H]1CC(=O)NCCCC[C@@H](C(=O)N[C@@H](C(=O)N2CCC[C@@H]2C(N)=O)C(C)C)NC(=O)[C@H](Cc2c[nH]c3ccccc23)NC(=O)[C@H](CCCN=C(N)N)NC(=O)[C@@H](Cc2ccc3ccccc3c2)NC(=O)[C@@H]2CCCN2C1=O	–	Beagle dog, both sexes, plasma	subcutaneous, once daily, 0.75 mg/kg, day 1	–	AUC	11700 ± 1300 ng·h/mL
OCc1cn(Cc2ccc(-c3noc(-c4ccc(OCC[18F])c(C(F)(F)F)c4)n3)cc2)nn1	–	Lewis rats, female, cortex	intravenous, 5 min	–	brain uptake	0.59 %ID/g
CNc1cc(OC)c(Nc2nccc(-c3cn(C4CC4)c4ccccc34)n2)cc1NC(=O)CCSCC(N)C(=O)O (stereo not drawn)	radio-HPLC, co-eluting peaks pooled	human, feces	0 to 240 h, sample holds 81.99% dose	relative to: dose	excreted amount	6.76%
O=C(NCCCN(CCCCN(CCCNC(=O)c1cccc(=O)n1[O-])C(=O)c1cccc(=O)n1[O-])C(=O)c1cccc(=O)n1[O-])c1cccc(=O)n1[O-].[89Zr+4]	radio-TLC	PBS	5 d, pH 7.4, 37 °C, added: Fe^3+ 10-fold excess	–	intact complex	90.5 ± 3.8%
CC(C)C[C@@H](NC(=O)[C@H](NC(=O)[C@H]1CCCN1)[C@H](C)O)C(=O)N[C@H](Cc1c[nH]cn1)C(=O)N[C@@H](C(=O)N[C@H](Cc1c[nH]cn1)C(=O)N[C@H](CC(N)=O)C(=O)N[C@H](CCCNC(=N)N)C(=O)N[C@H](CCCNC(=N)N)C(=O)N[C@H](CCCNC(=N)N)C(=O)N[C@H](CCCNC(=N)N)C(=O)N[C@H](CCCNC(=N)N)C(N)=O)[C@H](C)O	–	Beagle dog, plasma	intravenous, 3 mg/kg, single dose	–	AUC fraction of gamma phase	3.4%
CN1CCC(N[C@@H]2CCc3[nH]c4c(C(N)=O)ccc(-c5ccccc5Cl)c4c3C2)CC1	–	BALB/c mice, plasma	intravenous, 2 mg/kg	–	AUC(0-inf)	285 ± 55.8 ng·h/mL
Oc1ccc2ccccc2c1/N=N/c1ccccc1	–	extracted rat blood QC samples	0.5 µg/L, 4 h, room temperature, short-term stability	–	measured concentration	0.482 µg/L
NCCCC(=O)OCC(=O)c1ccc(O)c(C(F)(F)F)c1	LC-MS/MS	1-octanol	concentration not given	–	photolysis quantum yield	0.1
Cc1ccc(CN2C(=O)/C(=N\c3ccc(Cl)cc3Br)c3ccccc32)cc1	–	mouse	100 to 200 mg/kg, 7 days	–	body weight loss	~10%
N=C(N)NCCC[C@@H]1NC(=O)[C@H](Cc2c[nH]c3ccccc23)NC(=O)[C@@H](CC2CCCCC2)NC(=O)[C@@H]2CCCN2C(=O)[C@@H](NC(=O)CCc2ccccc2)CCCNC1=O	–	C57BL/6J mice, plasma	subcutaneous, 1 mg/kg, two-compartment model	–	absorption rate constant	2.21 h⁻¹

SMILES	test	system	conditions	scale	quantity	value
C[C@H]1CN(C(=O)c2cn(-c3ccnc(N)n3)c3cc(C#CC4(O)CCCCC4)ccc23)CCN1	–	CD-1 mouse, plasma	intravenous, 1 mg/kg	–	AUC(0-inf)	266 ng·h/mL
NC[C@@H](C(=O)Nc1ccc(-c2cn[nH]c2)cc1)c1ccccc1	OECD 405 eye irritation	New Zealand White rabbit, eye	topical, 0.1%, 24 h (day 2), scale 0 to 4	direction not given	chemosis score	0
COC(=O)C(c1ccccc1Cl)N1CCC(SCC(=O)c2cccc(OC)c2)C(=CC(=O)O)C1 (mixture of isomers)	–	feline EDTA plasma	room temperature	–	storage stability time	≥ 1 weeks
COc1cc(NC(C)=O)c2c(c1O)-c1c(OC)c(OC)cc3c1C(C2)N(C)CC3 (stereo not drawn)	–	rat liver homogenate	50 µg/mL, time not given, three freeze-thaw cycles	–	remaining compound	99.6 ± 0.2%
CN(CCCN=Cc1ccccc1[O-])CCN(C)CCCN=Cc1ccccc1[O-].[67Ga+3]	–	rat	intravenous, 2 h	relative to: heart over blood	tissue uptake ratio	33.8 ± 4.9
CC(C)c1cnc(-c2cc(Cl)ccc2F)cc1Nc1ccncc1C(=O)NC(CO)CO	monotherapy, measured: headache	human patients	oral, dose not given, grade 4, phase I A	–	patients with treatment-related adverse event	0%
CCCCCCCCCCC(=O)C(F)F	19F NMR	chloroform	–	–	hydrate fraction	0%
Cc1cc2c(cc1C1(c3ncc(C(=O)O)cn3)CC1)C(C)(C)CCC2(C)C	–	Sprague-Dawley rat, male	oral, 100 mg/kg, 12 h, sesame oil vehicle	–	blood triglycerides	136 ± 22.2 mg/dL
COc1ccc(-c2csc(N/N=C(\C)c3cc(O)cc(O)c3)n2)cc1	LC-MS/MS	rat plasma	3.75 ng/mL, 20 °C, 5 freeze-thaw cycles	–	concentration change	-9.6%
CC(C)N(P(c1ccccc1)c1ccccc1)P(c1ccccc1)c1ccccc1.Cc1ccc(C(C)C)cc1.F[B-](F)(F)F.[Cl][Ru+]	measured: ruthenium	BALB/c nude mice, serum	ip, 5 mg/kg	–	AUC(0-inf)	792 ng·h/mL
CC(C)(O)c1ncc([S@](N)(=O)=NC(=O)Nc2c3c(cc4c2CCC4)CCC3)s1	–	healthy human fasted, plasma	oral, 300 mg single dose, spray-dried dispersion	–	AUC(0-last)	327000 ng·h/mL
C#CCN(CCCNC(=O)CCCCC[N+]1=C(/C=C/C2=C(Cl)C(=C/C=C3\N(CCCCCC(=O)[O-])c4ccccc4C3(C)C)/CCC2)C(C)(C)c2ccccc21)CCCOc1ccc(Cl)cc1Cl	–	mouse plasma	1 µg/mL nominal, 2 weeks, -80 °C	–	concentration	1050 ± 60 ng/mL
COc1cc2c(cc1OC)CN(CCCCn1ccc3cc(OCC[18F])ccc31)C2	–	male ICR mice	intravenous, 280 kBq, 120 min post-injection	–	bone uptake	6.49 ± 1.23 %ID/g
[11CH3]c1ccc2nc(C3CCC3)n(-c3ccc4[nH]ncc4c3)c2n1	–	ddY mouse, heart	–	relative to: 1 min over 60 min	uptake ratio	3.6
CC(=O)[CH](C(C)=O)[Pt-2]1([S+](C)C)[O]C(C)=CC(C)=[O+]1 (stereo not drawn)	–	rat, blood	intravenous, 10 mg/kg, single dose	–	total protein	4.31 ± 8.5 g/dL
C[Si](C)(C)C[C@H](CN)CC(=O)O	–	Sprague-Dawley rat, male, brain	oral, 100 mg/kg, estimated as Cmax x Kp	–	brain Cmax	25 µM
COc1cccc(C=NCCCN(C)CCN(C)CCCN=Cc2cccc(OC)c2[O-])c1[O-].[67Ga+3]	–	rat	intravenous, 2 h	relative to: heart over liver	tissue uptake ratio	39 ± 3
CCCC[C@H](NC(=O)CNC(=O)CNC(=O)CN1CCN(CC(=O)O)CCN(CC(=O)O)CC1)C(=O)N[C@H]1CC(=O)NCCCC[C@@H](C(N)=O)NC(=O)[C@H](Cc2c[nH]c3ccccc23)NC(=O)[C@H](CCCNC(=N)N)NC(=O)[C@@H](Cc2ccccc2)NC(=O)[C@H](Cc2c[nH]cn2)NC1=O [gallium-67 labelled]	–	C57 mice, female, B16/F1 melanoma, tumour over blood	intravenous, 0.037 MBq, 2 h	–	tumour to tissue uptake ratio	62.9
CC(C)[C@H](NC(=O)[C@@H]1CCCN1C(=O)[C@H](CCCNC(=N)N)NC(=O)[C@H](CS)NC(=O)[C@H](Cc1c[nH]c2ccccc12)NC(=O)[C@H](CCCNC(=N)N)NC(=O)[C@@H](Cc1ccccc1)NC(=O)[C@H](Cc1c[nH]cn1)NC(=O)[C@H](CCC(=O)O)NC(=O)[C@H](CS)NC(=O)[C@H](CS)NC(=O)[C@@H]1CC(=O)N[C@@H](CCCNC(=N)N)C(=O)NCC(=O)N[C@@H](CC(=O)O)C(=O)N[C@H](Cc2ccc(O)cc2)C(=O)N1)C(N)=O [technetium-99m labelled]	RP-HPLC	mouse serum	24 h, 37 °C	–	serum stability	stable
Cc1ccc(-c2ccc(-c3cc4sccc4o3)cn2)nc1	TCSPC	water, HEPES 100 mM	pH 7.4, zinc-free ligand	–	radiative decay rate constant	0.23 ns⁻¹
O=C([O-])CN1CCN(CC(=O)[O-])CCN(CC(=O)NCC2CCC(C(=O)NC(Cc3ccc4ccccc4c3)C(=O)NCCCCC(NC(=O)NC(CCC(=O)O)C(=O)O)C(=O)O)CC2)CCN(CC(=O)[O-])CC1.[44Sc+3] (stereo not drawn)	transmetallation stability	–	24 h, 37 °C, added: Fe3+ 10 mM	–	intact complex	95 ± 1.4%

Repeated from above:
SMILES	test	system	conditions	scale	quantity	value
Cc1cc2c(cc1C1(c3ncc(C(=O)O)cn3)CC1)C(C)(C)CCC2(C)C	–	Sprague-Dawley rat, male	oral, 100 mg/kg, 12 h, sesame oil vehicle	–	blood triglycerides	136 ± 22.2 mg/dL
COc1ccc(-c2csc(N/N=C(\C)c3cc(O)cc(O)c3)n2)cc1	LC-MS/MS	rat plasma	3.75 ng/mL, 20 °C, 5 freeze-thaw cycles	–	concentration change	-9.6%
CC(C)N(P(c1ccccc1)c1ccccc1)P(c1ccccc1)c1ccccc1.Cc1ccc(C(C)C)cc1.F[B-](F)(F)F.[Cl][Ru+]	measured: ruthenium	BALB/c nude mice, serum	ip, 5 mg/kg	–	AUC(0-inf)	792 ng·h/mL
CC(C)(O)c1ncc([S@](N)(=O)=NC(=O)Nc2c3c(cc4c2CCC4)CCC3)s1	–	healthy human fasted, plasma	oral, 300 mg single dose, spray-dried dispersion	–	AUC(0-last)	327000 ng·h/mL
C#CCN(CCCNC(=O)CCCCC[N+]1=C(/C=C/C2=C(Cl)C(=C/C=C3\N(CCCCCC(=O)[O-])c4ccccc4C3(C)C)/CCC2)C(C)(C)c2ccccc21)CCCOc1ccc(Cl)cc1Cl	–	mouse plasma	1 µg/mL nominal, 2 weeks, -80 °C	–	concentration	1050 ± 60 ng/mL
COc1cc2c(cc1OC)CN(CCCCn1ccc3cc(OCC[18F])ccc31)C2	–	male ICR mice	intravenous, 280 kBq, 120 min post-injection	–	bone uptake	6.49 ± 1.23 %ID/g
